Measured values pooled from the literature.
Parts stem from different laboratories: compare values within a part only.

Study 1 — technique: protein-binding microarray; molecule type: double-stranded DNA, one strand shown; medium: in vitro; concentration: 940 nM top; setting: 60-bp whole probe; with: salmon DNA 0.4 mg/ml; baseline: random background probes; reading: higher = stronger binding; constant ends, left off below: GCCTAGCAC … GTCTTGATTCGCTTGACGCTGCTG
Target: Interferon regulatory factor 5, full length, phosphomimetic (IRF5, Homo sapiens, UniProt Q13568-2, residues 1-514, S451D/S453D/S456D/S462D)
Strand | fitted relative affinity
GACGGTCTCGGTATTGGGACGTGCTAG | 3.48 z-score
TCATTTTTCTCAACCGTACTGTGCTAG | 1.3 z-score
CATTTTATGGTATTTTTTTCGTGCTAG | 0.653 z-score
GACGATATCGAGTATCGAGACGTGCTA | 1.61 z-score
TTAGGTCTCGGACTGGCTTAGTGCTAG | 1 z-score
GACGGACTTCTACTGCTGACGTGCTAG | 0.234 z-score
TTAGGTATCGACTATCGTTTAGTGCTA | 5.98 z-score
GCTGTTCTCAGACTGGGTGCGTGCTAG | 0.0468 z-score
TCATTTTTTTCTAACTAACTGTGCTAG | 1.32 z-score
GACGGTCTCGGCTTCGGGACGTGCTAG | 1.53 z-score
TTAGGACTGCGTCTCGGTTAGTGCTAG | 0.667 z-score

Study 2 — technique: EMSA with sequencing; molecule type: double-stranded DNA, one strand shown; medium: in vitro; concentration: 10 and 20 nM; baseline: negative control set to 0; reading: higher = stronger binding
Target: Hepatocyte nuclear factor 3-alpha (Foxa1, Mus musculus, UniProt P35582, residues 1-468, full length assumed)
UniProt P35582, sequence (whole entry, looked up): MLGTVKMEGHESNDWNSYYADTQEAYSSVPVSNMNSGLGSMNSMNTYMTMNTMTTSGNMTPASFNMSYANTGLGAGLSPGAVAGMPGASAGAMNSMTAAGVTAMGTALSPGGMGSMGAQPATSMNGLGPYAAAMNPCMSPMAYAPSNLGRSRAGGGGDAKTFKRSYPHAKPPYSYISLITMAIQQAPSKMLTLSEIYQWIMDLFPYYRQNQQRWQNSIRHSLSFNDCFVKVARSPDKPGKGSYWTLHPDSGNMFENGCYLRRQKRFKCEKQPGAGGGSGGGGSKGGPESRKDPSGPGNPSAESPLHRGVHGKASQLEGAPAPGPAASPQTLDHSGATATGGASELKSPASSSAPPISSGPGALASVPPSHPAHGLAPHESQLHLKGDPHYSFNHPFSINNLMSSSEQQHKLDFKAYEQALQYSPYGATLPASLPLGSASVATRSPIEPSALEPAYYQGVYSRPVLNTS
Setting: whole designed probe, mean of two concentrations, ends assumed
Constant ends, left off below: GTGAGCGGTGCCCATTGATGGGGAAC … TTTCACTGGGATCGTGGGGAC
Strand | normalised bound fraction [ratio]
ATGAAAGCAGCCCAGACGAGCTGTGAGCAGCTGGGCTGGATAATTGTGAAGGATTCATGCTTGTTGCTGTTACCCCCAGAGATTGCAGTGGGTAGATTGCTTTGACTTTTGTTGAACTGTTGACAAAAGCATTAGATACAAATGGGAACAAATAAAGTGGTGAGATGCCAGGAGGGCTTGGCAGGAGTAGTGG | 0.174
ATCTTCCCCCTCTTCCTTGCCCCACCAGCTCACCTACGGGGGTTATTTGCACAAAGGAAAATAAATAAAGCCGGCATTCGTTAACGCAGTTCTGGCGCAAACTGCTGTTTGCTCTGCATCTAACATGGTCCTTACGCGAGGCGTGGCTCCGGGAGAGCAAAGCACCGTGTCAGGCGCATGATCCGGGGTGGCC | 0.392
AACAAGGCCCAAATTTTAATTATGCAGGAGGTTAATAGTCACACTGTTGACTTTCCGGTAAGATAAACAGTGAAAACTTGGCAAATGCTAATGTAAATAACTCCCCCCTCCTGCCCTCTCATTCCTGAAAATTGTACTCATTCTTGCAGAGTTCATATATGAGAACAGGGTATCCTAACCTAGTTAGAAGCAC | 0.453
AAATTCTGCAATTACATCACCTCATCTGCACCTGATGAATAAAAATAAATTATTTCAAAGTTTTAAAAAGTGCAACAATGATTTGCAAGACAGAGTAATCTTACAGTAAAGGTTTTAATTCCTGAGACTTAAGTTGGATAGGTCTAGATTTTCATCAAGGAAAACAAAAGTATGATGTTAAATTCAAATTCTA | -0.0124
TTTGTGCTCCTTGCTCCTACTCCCAAAGCCTCAAATCTGCTATGTGGCCTTTCCCAGTTGGCTTCTTTTATTTTCTTAACTTCTCCCTTGTAATGTAAACATGGGAAAGAGAAAGTGGTAGAAGAACAAAGAATAAGCATACAAAGTAGCTCCACTCCTTCTGCATAGAGCTTTAATAAGGAAATGGTGCCAC | 0.434

Study 3 — technique: RNA Bind-n-Seq; molecule type: RNA; medium: in vitro; concentration: 365 nM; baseline: no-protein control; reading: higher = stronger binding
Target: RNA binding protein fox-1 homolog 2, RRM domain, GST-SBP tag (RBFOX2, Homo sapiens, UniProt O43251-10, residues 100-194)
Setting: natural RNA segment, single round, ends assumed
Constant ends, left off below: GGGAGUUCUACAGUCCGACGAUC … UGGAAUUCUCGGGUGCCAA
Target sequence (chain): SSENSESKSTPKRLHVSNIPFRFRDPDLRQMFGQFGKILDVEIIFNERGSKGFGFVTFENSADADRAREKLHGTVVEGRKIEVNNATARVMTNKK
Strand | RBNS enrichment (R)
UCUCUUUUCCUGACCCUCCCUAAAGGCGUUGCCCUCCUAUCCUCCCCUCCCUUGCCCACCCUUGUUUUCUUGGCAUGGGAGGCUUUUCCCUAAGCCACCUGCCCCUAGAG | 1.05
AAUUGUUAUGUGAAAUUUUAGGGUAACGGUGAUUAAGCUCUGCACUGGUAUUUGGAAUUUUUUUUCCUUUAAUCUUUGGUUUAAAAACAUCUUAAAAUCACUUAUAUACA | 0.775
ACUGUAAAGACACUGCUGUCUCCUUAAUAUGCUCCUUAACACGUAUGUUGAUGUAGCAUCAUUUUGUGGAUAGGAAAAAAAAUGUUUGACCUUCAGAUAUUUUCUACUUA | 0.371
CUCCCUCCAUAGCCAAUCUGCAUCUCGCUCUGGAUGCCCACUCCUGACCUGCCACGCCCUACAUGGUCCCCUGUGUAGCUUGCUAGCCUUGGGGGCCUGUCACUUGCCAA | 3.57
GUCUCUCUCAUUCUCUCUUCACCUGCCAUAGCAAAGAAACAUCCCAGAAUCGACCCUUCUCCCAUUGAUCCAUGUCUCCCGUGUCACCAUGGGCAUGGCAUGUGAAGCAA | 0.519
GAUCCAAUUGCCCCAGUCUCCCUGCAUUUGCUAUUAAGUGAAUAUGCUGAACUGUCAUAAAAUUUUUUCAACCCUUUAUUGUGAUUUCCAAUGUCUUGAAGUUUUAAGUG | 0.948
GAUUCUGCUGGAUCUCAAAGAUGUGCCAAGCCAAGGAAAAAGAUACAAGAGCAGAAUAGUACUUAAAAUCCAAACUGCCGCCCAGAUGGGCUUGUUCUUCAUGCCUAACU | 0.31
AACACUACCCCACCCCCAACUAGGAGGAACCUCUGUUUUCAAGAGAGAUGCCUGUCCUGUGCUUGGAUAGUCAGUCAAUUAUUUGUGUAUGAAACAAUGUACAAAUCAAU | 0.269
UGUUCAUAAUUGCCAAAGCAGUAUUUAUACUAUUGUAAACAACUCGCACAUCUCUCCUGUCUGUUAGUAGUAAGAAUACAGGGAAAUGUCUUCAGCCCCACGUAGAUGCU | 0.748

Other studies, line by line
Molecule | target | test | test system | conditions | scale | quantity | result
PhoQ, residues 284 288 289 292 302 303 MLMVEA | PhoP, residues 12 14 15 18 19 LQHIR (Escherichia coli, UniProt P23836) | Sort-seq, refers to: YFP reporter | E. coli | PhoQ-PhoP variant library, with: 10 µM Mg2+ | baseline: high Mg2+ state, higher = stronger signaling | fold induction | 19.2
